Experimental data pooled from the literature.
Sequence of UniProt O94768 (whole entry, looked up): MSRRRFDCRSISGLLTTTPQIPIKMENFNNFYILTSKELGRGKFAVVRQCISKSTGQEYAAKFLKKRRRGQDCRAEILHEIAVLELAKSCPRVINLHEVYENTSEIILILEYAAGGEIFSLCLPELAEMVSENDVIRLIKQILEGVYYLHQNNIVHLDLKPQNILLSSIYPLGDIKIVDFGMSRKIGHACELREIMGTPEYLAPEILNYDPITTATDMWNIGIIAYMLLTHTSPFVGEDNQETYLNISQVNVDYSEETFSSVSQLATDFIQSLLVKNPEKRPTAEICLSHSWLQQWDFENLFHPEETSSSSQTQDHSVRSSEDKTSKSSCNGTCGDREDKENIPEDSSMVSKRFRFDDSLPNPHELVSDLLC

SMILES | tested on | assay | conditions | quantity | result
CN(C)C1CCN(C(=O)/C=C/c2nn(CC3CCCC3)c3ncnc(N)c23)CC1 | FLO-1 | cell growth or viability, resazurin | 5 days | EC50 | > 30 µM
NCc1ccc(-c2nn(Cc3ccncc3)c3ccccc23)o1 | RBE | cell growth or viability, ATP luminescence | 46 µM, 72 h | inhibition | 68%
CN(C)CCNC(=O)c1ccc(-c2nc3ccc4[nH]ncc4c3c3c2CCCC3)cc1 | Kasumi 1 | cell growth or viability | 72 h | GI50 | 0.351 µM
S=C(Nc1ccccc1)Nc1ccc(Oc2nnc(-c3ccc(Cl)cc3)c3ccccc23)cc1 | MCF7 | cell growth or viability, MTT | 0.625 µM | cell death | 0.266%
C=CC(=O)N1CCC(COCC(=O)N2CCN(c3nc(-c4cnc(N)nc4C(F)F)nc(N4CCOC[C@@H]4C)n3)CC2)CC1 | STK17B (Homo sapiens, UniProt O94768) | binding, competition with immobilised ligand | 1 µM | remaining binding | 100%
CC(=NNC(=O)c1ccccc1)c1ccc(Nc2nnc(-c3ccc(Cl)cc3)c3ccccc23)cc1 | MCF7 | cell growth or viability, MTT | 10 µM, 24 h | viability | 5.89%
COc1cc(-c2nn(CCN3CCC(N(C)C)CC3)c3ncnc(N)c23)ccc1NC(=O)OC(C)(C)C | OE33 | cell growth or viability, resazurin | 5 days | EC50 | 16.3 µM
Cc1c(Cc2ccccc2)c(=O)oc2c(C)c(OCC(=O)NN=Cc3ccco3)ccc12 | PC-3 | cell growth or viability, MTT | 1000 µg/mL | viability | 7.23%
Cn1nnc2c(C(N)=O)ncn2c1=O | MB002 | cell growth or viability | 7 days | IC50 | > 10 µM
O=C(C=Cc1ccccc1)Nc1ccc(Oc2nnc(-c3ccc(Cl)cc3)c3ccccc23)cc1 | MCF7 | cell growth or viability, MTT | 0.312 µM, 24 h | viability | 100%
OCc1ccc(-c2nn(Cc3cccnc3)c3ccccc23)o1 | RBE | cell growth or viability, ATP luminescence | 46 µM, 72 h | inhibition | 75%
Cc1[nH]c(C)c(-c2ccc(Oc3ccc(F)cc3)cc2)c(=O)c1Cl | HEK293 | cell growth or viability | – | IC50 | > 10 µM
CCc1c(C)c2ccc(OCC=Cc3ccccc3)c(C)c2oc1=O | PC-3 | cell growth or viability, MTT | 1000 µg/mL | viability | 6.48%
Cc1[nH]c(C)c(-c2ccc(OCc3ccccc3)cc2)c(=O)c1Br | HEK293 | cell growth or viability | – | IC50 | > 10 µM
CC(=NNC(=O)c1ccc(N)cc1)c1ccc(Nc2nnc(-c3ccc(Cl)cc3)c3ccccc23)cc1 | MCF7 | cell growth or viability, MTT | 0.312 µM, 24 h | viability | 87%
C[C@@H]1CC[C@@H]([C@](C)(O)CNCc2ccccc2F)[C@H](OCc2ccccc2)C1 | HeLa | cell growth or viability, MTT | 30 µM, 72 h | inhibition | 90.4%
Cc1c(Cc2ccccc2)c(=O)oc2c(C)c(OCC(=O)NN=Cc3ccccc3)ccc12 | PC-3 | cell growth or viability, MTT | 1000 µg/mL | viability | 7.28%
CC(=NNC(=O)c1ccccc1Cl)c1ccc(Nc2nnc(-c3ccc(Cl)cc3)c3ccccc23)cc1 | MCF7 | cell growth or viability, MTT | 10 µM, 24 h | viability | 4.69%
COc1ccc(CNC[C@](O)(COCc2ccc(OC)cc2)[C@@H]2CC[C@@H](C)C[C@H]2OCc2ccc(OC)cc2)cc1 | HeLa | cell growth or viability, MTT | 30 µM, 72 h | inhibition | 97.6%
CC(C)CC1c2[nH]c3ccccc3c(=O)c2CN1C(=O)OC(C)(C)C (centres unmarked) | HEK293 | cell growth or viability | – | IC50 | > 10 µM
Nc1ncnc2c1c(/C=C/C(=O)N1CCOCC1)nn2CC1CCCC1 | FLO-1 | cell growth or viability, resazurin | 5 days | EC50 | > 30 µM
CCC(=CCc1c(O)cc2c(c1O)C(=O)C[C@@H](c1ccccc1O)O2)CC | HeLa | cell growth or viability, MTT | 7.5 µM, 48 h | inhibition | 0.481%
O=C(Nc1ccc(Oc2nnc(-c3ccc(Cl)cc3)c3ccccc23)cc1)c1cccc([N+](=O)[O-])c1 | MCF7 | cell growth or viability, MTT | 0.156 µM, 24 h | viability | 38.4%
COc1cc(-c2cncc3c2CN(C)Cc2cc(N4CCNCC4)ccc2-3)cc(OC)c1OC | MET (Homo sapiens, UniProt P08581, D1228H) | enzyme activity, inhibitor | 1 µM | remaining activity | 94%
CC(=NNC(=O)c1ccncc1)c1ccc(Nc2nnc(-c3ccc(Cl)cc3)c3ccccc23)cc1 | MCF7 | cell growth or viability, MTT | 1.25 µM, 24 h | viability | 4.65%
Cc1ccc(C(CS(=O)(=O)c2ccccc2)=NNc2nc(-c3ccc(OCCCCOc4ccc(-c5csc(NN=C(CS(=O)(=O)c6ccccc6)c6ccc(C)cc6)n5)cc4)cc3)cs2)cc1 | WM 266-4 | cell growth or viability, MTT | 6.3 µM, 48 h | viability | 56%

Some of these lines once more:
SMILES | tested on | assay | conditions | quantity | result
Cc1[nH]c(C)c(-c2ccc(Oc3ccc(F)cc3)cc2)c(=O)c1Cl | HEK293 | cell growth or viability | – | IC50 | > 10 µM
CCc1c(C)c2ccc(OCC=Cc3ccccc3)c(C)c2oc1=O | PC-3 | cell growth or viability, MTT | 1000 µg/mL | viability | 6.48%
Cc1[nH]c(C)c(-c2ccc(OCc3ccccc3)cc2)c(=O)c1Br | HEK293 | cell growth or viability | – | IC50 | > 10 µM
